Results pooled from the literature.
Protocols differ between the studies behind these lines. Numbers after ± are the reported error.

CC(C)c1nc(CN(C)C(=O)N[C@H](C(=O)N[C@@H](Cc2ccccc2)C[C@H](O)[C@H](Cc2ccccc2)NC(=O)OCc2cncs2)C(C)C)cs1 — Cmax (healthy human volunteers, plasma; oral, dose not given, alone, digoxin interaction study): 2170 ng/mL
CC[C@H](C)[C@H](NC(=O)[C@H](CC(C)C)NC(=O)[C@H](Cc1c[nH]c2ccccc12)NC(=O)[C@H](CCC(N)=O)NC(=O)[C@@H](NC(=O)[C@H](Cc1ccccc1)NC(=O)[C@H](C)NC(=O)[C@H](CCCCNC(=O)COCCOCCNC(=O)COCCOCCNC(=O)CC[C@H](NC(=O)CCCCCCCCCCCCCCCCCCC(=O)O)C(=O)O)NC(=O)[C@H](CCC(N)=O)NC(=O)[C@H](C)NC(=O)[C@@H](NC(=O)[C@H](CCCCN)NC(=O)[C@H](CC(=O)O)NC(=O)[C@H](CC(C)C)NC(=O)C(C)(C)NC(=O)[C@@H](NC(=O)[C@H](CO)NC(=O)[C@H](Cc1ccc(O)cc1)NC(=O)[C@H](CC(=O)O)NC(=O)[C@H](CO)NC(=O)[C@@H](NC(=O)[C@H](Cc1ccccc1)NC(=O)[C@@H](NC(=O)CNC(=O)[C@H](CCC(=O)O)NC(=O)C(C)(C)NC(=O)[C@@H](N)Cc1ccc(O)cc1)[C@@H](C)O)[C@@H](C)O)[C@@H](C)CC)[C@@H](C)CC)C(C)C)C(=O)N[C@@H](C)C(=O)NCC(=O)NCC(=O)N1CCC[C@H]1C(=O)N[C@@H](CO)C(=O)N[C@@H](CO)C(=O)NCC(=O)N[C@@H](C)C(=O)N1CCC[C@H]1C(=O)N1CCC[C@H]1C(=O)N1CCC[C@H]1C(=O)N[C@@H](CO)C(N)=O — Cmax (human, severe renal impairment, no dialysis, plasma; subcutaneous, 5 mg single dose, eGFR < 30, geometric mean): 417 ng/mL
CCCCCOc1ccc(-c2cc(-c3ccc(C(=O)N[C@H]4C[C@@H](O)[C@@H](O)NC(=O)[C@@H]5[C@@H](O)[C@@H](C)CN5C(=O)[C@H]([C@H](O)CC(N)=O)NC(=O)[C@H]([C@H](O)[C@@H](O)c5ccc(O)c(OS(=O)(=O)O)c5)NC(=O)[C@@H]5C[C@@H](O)CN5C(=O)[C@H]([C@@H](C)O)NC4=O)cc3)no2)cc1 — Cmax (human paediatric patients 6 to sample C years, plasma; intravenous, 4.5 mg/kg once daily, day 7, mean): 20700 ng/mL
CN1CC(=O)N2[C@H](c3ccc4c(c3)OCO4)c3[nH]c4ccccc4c3C[C@@H]2C1=O — Cmax (healthy adult humans, both sexes, plasma; oral, 10/40 mg fixed-dose combination, single dose, fed, high-fat breakfast): 677 ng/mL
COc1ccsc1CNCC[C@@]1(c2ccccn2)CCOC2(CCCC2)C1 — Cmax (healthy human, normal renal function, plasma; intravenous, 1 mg single dose, arithmetic mean): 8.97 ng/mL
COc1ccc(C(CN(C)C)C2(O)CCCCC2)cc1 (stereo not shown) — Cmax (human, plasma; oral, 225 mg/day, day 15): 211 ng/mL
COc1ccc(C[C@@H]2NC(=O)[C@H]([C@@H](C)O)NC(=O)[C@@H]3[C@@H]4CCN3C(=O)[C@@H]3Cc5cn(c6ccc(F)cc56)CCCCCCN(Cc5ccc(cc5)CCNC(=O)[C@]5(C)CCCN5C2=O)C(=O)CCC(=O)N[C@@H](C)C(=O)N[C@H](CNC(=O)CCCCC[N+](C)(C)C)C(=O)N[C@@H](Cc2cccc(c2)CNC(=O)CO4)C(=O)N3)cc1 — Cmax (fasted healthy humans, plasma; oral, 100 mg single dose, with 1800 mg Labrasol, geometric mean): 46.2 nM
C=CCNC1=C2C[C@@H](C)C[C@H](OC)[C@H](O)[C@@H](C)/C=C(\C)[C@H](OC(N)=O)[C@@H](OC)/C=C\C=C(/C)C(=O)NC(=CC1=O)C2=O — Cmax (human cancer patients, plasma; intravenous, 150 mg/m^2 over 60 min, cycle 1 day 1, given alone): 2480 ± 836 ng/mL
O=c1[nH]c(Cc2ccccn2)nc2c1cnn2C1CCOCC1 — Cmax (healthy male human, plasma; oral, 10 mg, geometric mean): 223 nM
COC(=O)N[C@H](C(=O)N1CCC[C@H]1C(=O)Nc1ccc([C@@H]2CC[C@@H](c3ccc(NC(=O)[C@@H]4CCCN4C(=O)[C@@H](NC(=O)OC)C(C)C)cc3)N2c2ccc(C(C)(C)C)cc2)cc1)C(C)C — Cmax (healthy human volunteers, plasma; oral, dose not given, alone, escitalopram interaction study): 111 ng/mL
COc1cnc(-n2cnc(C)n2)c2[nH]cc(C(=O)C(=O)N3CCN(C(=O)c4ccccc4)CC3)c12 — Cmax (human; oral, dose not given, together with: fostemsavir 600 mg BID with methadone): 1500 ng/mL
CC[C@H](C)[C@H](NC(=O)[C@H](CC(C)C)NC(=O)[C@H](Cc1c[nH]c2ccccc12)NC(=O)[C@H](CCC(N)=O)NC(=O)[C@@H](NC(=O)[C@H](Cc1ccccc1)NC(=O)[C@H](C)NC(=O)[C@H](CCCCNC(=O)COCCOCCNC(=O)COCCOCCNC(=O)CC[C@H](NC(=O)CCCCCCCCCCCCCCCCCCC(=O)O)C(=O)O)NC(=O)[C@H](CCC(N)=O)NC(=O)[C@H](C)NC(=O)[C@@H](NC(=O)[C@H](CCCCN)NC(=O)[C@H](CC(=O)O)NC(=O)[C@H](CC(C)C)NC(=O)C(C)(C)NC(=O)[C@@H](NC(=O)[C@H](CO)NC(=O)[C@H](Cc1ccc(O)cc1)NC(=O)[C@H](CC(=O)O)NC(=O)[C@H](CO)NC(=O)[C@@H](NC(=O)[C@H](Cc1ccccc1)NC(=O)[C@@H](NC(=O)CNC(=O)[C@H](CCC(=O)O)NC(=O)C(C)(C)NC(=O)[C@@H](N)Cc1ccc(O)cc1)[C@@H](C)O)[C@@H](C)O)[C@@H](C)CC)[C@@H](C)CC)C(C)C)C(=O)N[C@@H](C)C(=O)NCC(=O)NCC(=O)N1CCC[C@H]1C(=O)N[C@@H](CO)C(=O)N[C@@H](CO)C(=O)NCC(=O)N[C@@H](C)C(=O)N1CCC[C@H]1C(=O)N1CCC[C@H]1C(=O)N1CCC[C@H]1C(=O)N[C@@H](CO)C(N)=O — Cmax (human, normal hepatic function, plasma; subcutaneous, 5 mg single dose, geometric mean): 510 ng/mL
CC[C@@]1(O)C(=O)OCc2c1cc1n(c2=O)Cc2cc3c(CN(C)C)c(O)ccc3nc2-1 — Cmax (human patients, plasma; oral, 2.5 mg daily for 5 days, day 5 cycle 2, geometric mean, together with: pazopanib 800 mg daily): 11.1 ng/mL
CCCCCOc1ccc(-c2ccc(-c3ccc(C(=O)N[C@H]4C[C@@H](O)[C@@H](OCC[N+](C)(C)C)NC(=O)[C@@H]5[C@@H](O)[C@@H](C)CN5C(=O)[C@H]([C@@H](C)O)NC(=O)[C@H]([C@H](O)[C@@H](O)c5ccc(O)cc5)NC(=O)[C@@H]5C[C@@H](O)CN5C(=O)[C@H]([C@@H](C)O)NC4=O)cc3)cc2)cc1 — Cmax (healthy human adults, plasma; subcutaneous, 10 mg, single dose, geometric mean): 105 ng/mL
NS(=O)(=O)Nc1ncnc(OCCOc2ncc(Br)cn2)c1-c1ccc(Br)cc1 — Cmax (healthy adult humans, both sexes, plasma; oral, 10/40 mg fixed-dose combination, single dose, fasted): 187 ng/mL
O[C@H]1CCCN[C@@H]1CCCn1cnc2c(Cl)c(Cl)ccc21 — Cmax (healthy human volunteers, plasma; oral, 200 mg, day 1, multiple ascending dose): 256 ng/mL
Oc1ccc2cc3ccc4cccc5ccc(c2c1)c3c45 — Cmax (UPLC-AMS; human, plasma; oral, 25 ng of [14C]-BaP): 0.66 ± 0.06 fg BaP equivalents/mL
CC(C)C[C@H](NC(=O)CNC(=O)c1cc(Cl)ccc1Cl)B(O)O — Cmax (human, plasma; oral, 4 mg, day 1, alone): 55.8 ng/mL
Oc1ccc2ccc3c4ccccc4cc4ccc1c2c43 — Cmax (UPLC-AMS; human, plasma; oral, 250 ng of [14C]-BaP): 9.34 ± 6.91 fg BaP equivalents/mL
CC(C)C[C@H](CN)CC(=O)O — Cmax (human, plasma; oral, 150 mg, geometric mean): 3430 ng/mL
Cc1ncc2n1-c1ccc(Cl)cc1C(c1ccccc1F)=NC2 — Cmax (human, plasma; oral, 7.5 mg, alone before amenamevir 200 mg): 26.3 ± 13.7 ng/mL
Cc1cnc(C(=O)N[C@H]2CCCCC/C=C\[C@@H]3C[C@@]3(C(=O)NS(=O)(=O)C3CC3)NC(=O)[C@@H]3C[C@@H](Oc4nc5ccccc5c5ccccc45)CN3C2=O)cn1 — Cmax (healthy human volunteers, plasma; oral, dose not given, alone, pravastatin interaction study): 230 ng/mL
